Experimental data gathered from unrelated publications.
Numbered parts are unrelated; each lists some results of a single study. Several values in a cell are separate wells, animals, samples, runs or records. ± gives the spread as reported.
UniProt Q12809, sequence (whole entry, looked up): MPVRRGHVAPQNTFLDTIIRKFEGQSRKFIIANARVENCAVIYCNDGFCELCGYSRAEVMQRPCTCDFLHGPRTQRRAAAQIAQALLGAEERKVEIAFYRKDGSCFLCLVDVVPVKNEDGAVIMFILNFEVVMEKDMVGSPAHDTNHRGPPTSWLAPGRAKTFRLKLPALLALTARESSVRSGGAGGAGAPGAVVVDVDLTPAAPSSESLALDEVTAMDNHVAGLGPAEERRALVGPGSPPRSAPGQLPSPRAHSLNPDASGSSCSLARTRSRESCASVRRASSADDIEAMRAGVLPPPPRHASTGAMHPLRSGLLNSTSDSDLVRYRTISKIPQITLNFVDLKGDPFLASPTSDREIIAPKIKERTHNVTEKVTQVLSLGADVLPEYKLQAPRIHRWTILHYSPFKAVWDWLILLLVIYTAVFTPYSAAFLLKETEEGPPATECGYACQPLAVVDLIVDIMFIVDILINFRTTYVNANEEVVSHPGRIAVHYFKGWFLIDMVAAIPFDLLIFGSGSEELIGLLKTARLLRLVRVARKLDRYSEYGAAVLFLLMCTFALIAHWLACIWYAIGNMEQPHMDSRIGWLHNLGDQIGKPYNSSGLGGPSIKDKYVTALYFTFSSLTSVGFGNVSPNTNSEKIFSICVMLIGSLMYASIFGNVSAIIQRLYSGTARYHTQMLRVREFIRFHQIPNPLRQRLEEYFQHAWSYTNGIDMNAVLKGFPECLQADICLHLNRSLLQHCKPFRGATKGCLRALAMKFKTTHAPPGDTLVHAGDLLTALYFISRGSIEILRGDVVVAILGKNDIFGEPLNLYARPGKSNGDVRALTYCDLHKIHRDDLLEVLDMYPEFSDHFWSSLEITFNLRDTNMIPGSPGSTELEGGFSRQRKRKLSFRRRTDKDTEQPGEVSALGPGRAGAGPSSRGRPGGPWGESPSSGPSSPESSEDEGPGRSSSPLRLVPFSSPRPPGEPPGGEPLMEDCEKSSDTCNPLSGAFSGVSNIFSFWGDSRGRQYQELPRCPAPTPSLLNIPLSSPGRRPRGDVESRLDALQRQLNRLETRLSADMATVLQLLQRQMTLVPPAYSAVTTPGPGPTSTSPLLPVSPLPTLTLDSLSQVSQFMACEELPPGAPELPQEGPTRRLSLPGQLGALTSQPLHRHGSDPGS

Study 1 — read-out: thermal unfolding; technique: differential scanning fluorimetry; concentration: 5.5 µM; direction: higher = more unfolded
Compound: C[C@@H]1CN(c2ccc(-c3cc(C(=O)NCCOCCOCCOCCOCCNC(=O)/C=C/c4[nH]cc(C(=O)N[C@@H](CC(N)=O)c5ccc(F)c(Cl)c5)c4-c4ccc(Cl)cc4F)ccc3F)cc2NC(=O)c2c[nH]c(=O)cc2C(F)(F)F)C[C@H](C)N1C
DCAF1: DDB1- and CUL4-associated factor 1 (DCAF1, Homo sapiens, UniProt Q9Y4B6)
UniProt Q9Y4B6, sequence (whole entry, looked up): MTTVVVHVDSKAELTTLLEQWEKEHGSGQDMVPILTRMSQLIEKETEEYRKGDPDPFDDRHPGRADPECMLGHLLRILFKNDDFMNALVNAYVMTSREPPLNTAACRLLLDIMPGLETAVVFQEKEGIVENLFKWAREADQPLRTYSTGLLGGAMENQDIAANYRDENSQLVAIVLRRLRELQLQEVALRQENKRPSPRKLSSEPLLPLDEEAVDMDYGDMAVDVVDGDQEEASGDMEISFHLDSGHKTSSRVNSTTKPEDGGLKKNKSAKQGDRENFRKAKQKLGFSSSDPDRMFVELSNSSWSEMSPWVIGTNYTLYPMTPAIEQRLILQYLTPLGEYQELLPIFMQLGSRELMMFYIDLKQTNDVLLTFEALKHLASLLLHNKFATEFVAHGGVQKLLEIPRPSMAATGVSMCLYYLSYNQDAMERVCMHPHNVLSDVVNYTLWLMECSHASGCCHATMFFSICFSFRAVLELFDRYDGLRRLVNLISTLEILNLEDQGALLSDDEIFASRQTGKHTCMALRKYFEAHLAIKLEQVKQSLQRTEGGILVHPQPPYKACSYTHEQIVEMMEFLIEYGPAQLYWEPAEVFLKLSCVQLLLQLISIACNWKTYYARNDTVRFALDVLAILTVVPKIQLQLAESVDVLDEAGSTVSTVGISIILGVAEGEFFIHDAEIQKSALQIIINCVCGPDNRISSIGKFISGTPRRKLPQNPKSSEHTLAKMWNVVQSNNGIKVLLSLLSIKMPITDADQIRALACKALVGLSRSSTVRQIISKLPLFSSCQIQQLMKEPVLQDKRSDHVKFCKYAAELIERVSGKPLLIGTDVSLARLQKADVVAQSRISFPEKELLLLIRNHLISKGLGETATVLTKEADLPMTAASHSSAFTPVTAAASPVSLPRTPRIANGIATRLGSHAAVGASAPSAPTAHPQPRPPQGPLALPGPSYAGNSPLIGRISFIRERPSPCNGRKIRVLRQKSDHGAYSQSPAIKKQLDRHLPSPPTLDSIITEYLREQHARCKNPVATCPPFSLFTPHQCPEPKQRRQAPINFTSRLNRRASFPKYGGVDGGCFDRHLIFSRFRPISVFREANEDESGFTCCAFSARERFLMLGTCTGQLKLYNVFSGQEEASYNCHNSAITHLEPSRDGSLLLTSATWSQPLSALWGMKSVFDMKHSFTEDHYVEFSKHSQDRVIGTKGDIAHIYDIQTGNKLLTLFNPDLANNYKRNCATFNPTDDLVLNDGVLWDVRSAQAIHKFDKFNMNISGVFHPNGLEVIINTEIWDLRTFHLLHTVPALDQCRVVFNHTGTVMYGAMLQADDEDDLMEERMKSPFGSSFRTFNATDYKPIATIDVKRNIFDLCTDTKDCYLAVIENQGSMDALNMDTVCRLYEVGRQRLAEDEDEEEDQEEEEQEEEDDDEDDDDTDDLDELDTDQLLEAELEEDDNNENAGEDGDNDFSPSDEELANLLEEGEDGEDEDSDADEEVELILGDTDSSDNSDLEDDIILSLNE
WDR5: WD repeat-containing protein 5 (WDR5, Homo sapiens, UniProt P61964)
For DCAF1; 27.4 °C: “SYPRO Orange fluorescence” read 8880 a.u.
The “SYPRO Orange fluorescence” was 15900 a.u. (WDR5; 48.2 °C).
The “SYPRO Orange fluorescence” was 53600 a.u. (WDR5; 87.41 °C).
For WDR5; 37.2 °C: “SYPRO Orange fluorescence” read 13700 a.u.
It gave 53200 a.u. for “SYPRO Orange fluorescence” (WDR5; 88.01 °C).
DCAF1; 78.81 °C — “SYPRO Orange fluorescence”: 46500 a.u.
The “SYPRO Orange fluorescence” was 12700 a.u. (WDR5; 32 °C).
For WDR5; 64.21 °C: “SYPRO Orange fluorescence” read 14000 a.u.

Study 2
Structure (SMILES): Cc1ncsc1-c1ccc(C(CO)NC(=O)C2CC(O)CN2C(=O)C(C(C)C)n2cc(-c3ccc(COc4c(-c5c(C)c(F)cc6[nH]ncc56)c(C5CC5)cc5c(N6CC7CC6CN7)nc(OC6CCOCC6)nc45)cc3)nn2)cc1 (stereo not shown)
The tumour volume was 269 mm3 and 294 mm3 and 334 mm3 and 252 mm3 and 318 mm3 (mouse, PK-59 xenograft; 1 mg/kg, day 0).
The tumour volume was 489 mm3 and 338 mm3 and 447 mm3 and 596 mm3 and 671 mm3 (mouse, A-375 xenograft; sc, 30 mg/kg once daily, day 10).
mouse, A-375 xenograft; sc, 30 mg/kg once daily, day 13 — tumour volume: 501 mm3 and 857 mm3 and 588 mm3 and 1060 mm3 and 619 mm3.
For mouse, lung LXFA sample B PDX; 30 mg/kg twice weekly, day 22: tumour volume read 188 mm3 and 81.2 mm3 and 269 mm3 and 63 mm3 and 33 mm3 and 67.1 mm3 and 19.7 mm3 and 159 mm3.
The tumour volume was 197 mm3 and 212 mm3 and 229 mm3 and 176 mm3 and 191 mm3 (mouse, GP2d xenograft; 30 mg/kg once weekly, day 0).
The tumour volume was 327 mm3 and 383 mm3 and 341 mm3 and 435 mm3 and 466 mm3 (mouse, PK-59 xenograft; 3 mg/kg, day 4).

Mixed results
E3 ubiquitin-protein ligase NEDD4: E3 ubiquitin-protein ligase NEDD4 (Homo sapiens, UniProt P46934)
UniProt P46934, sequence (whole entry, looked up): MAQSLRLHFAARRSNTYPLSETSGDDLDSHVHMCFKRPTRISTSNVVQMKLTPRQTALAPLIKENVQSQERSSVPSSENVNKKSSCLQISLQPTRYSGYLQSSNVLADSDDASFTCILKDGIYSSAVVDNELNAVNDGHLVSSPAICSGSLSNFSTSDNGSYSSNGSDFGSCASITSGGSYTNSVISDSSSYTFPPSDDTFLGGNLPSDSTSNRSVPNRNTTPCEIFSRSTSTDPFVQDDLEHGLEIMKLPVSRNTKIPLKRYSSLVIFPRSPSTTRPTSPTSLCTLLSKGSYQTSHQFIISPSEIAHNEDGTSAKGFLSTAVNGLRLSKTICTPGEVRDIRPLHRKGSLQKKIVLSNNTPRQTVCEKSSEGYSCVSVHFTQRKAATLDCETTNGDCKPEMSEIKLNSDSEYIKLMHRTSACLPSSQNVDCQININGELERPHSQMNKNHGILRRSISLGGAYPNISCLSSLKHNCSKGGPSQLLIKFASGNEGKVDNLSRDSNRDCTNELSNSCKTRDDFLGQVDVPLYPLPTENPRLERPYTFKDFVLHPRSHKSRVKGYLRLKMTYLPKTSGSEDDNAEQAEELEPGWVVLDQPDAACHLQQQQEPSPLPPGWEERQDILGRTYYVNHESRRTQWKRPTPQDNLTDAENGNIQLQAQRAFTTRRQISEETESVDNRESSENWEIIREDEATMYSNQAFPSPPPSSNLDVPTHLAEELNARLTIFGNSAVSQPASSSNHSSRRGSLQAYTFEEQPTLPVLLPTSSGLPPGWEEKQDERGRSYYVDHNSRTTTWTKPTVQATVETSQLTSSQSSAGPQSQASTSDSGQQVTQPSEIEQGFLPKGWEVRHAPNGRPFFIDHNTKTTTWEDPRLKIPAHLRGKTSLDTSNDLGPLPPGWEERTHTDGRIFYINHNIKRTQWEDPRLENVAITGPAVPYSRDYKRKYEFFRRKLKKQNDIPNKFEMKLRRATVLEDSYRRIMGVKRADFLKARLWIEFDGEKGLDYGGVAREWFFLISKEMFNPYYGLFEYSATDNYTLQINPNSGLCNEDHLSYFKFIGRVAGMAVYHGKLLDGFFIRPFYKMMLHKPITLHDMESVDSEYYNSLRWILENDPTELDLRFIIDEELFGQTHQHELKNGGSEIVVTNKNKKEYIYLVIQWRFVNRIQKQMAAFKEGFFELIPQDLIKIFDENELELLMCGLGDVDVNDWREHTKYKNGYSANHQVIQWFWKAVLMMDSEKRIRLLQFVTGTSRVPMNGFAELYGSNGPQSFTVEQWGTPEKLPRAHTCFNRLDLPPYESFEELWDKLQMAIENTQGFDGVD
With CCOC(=O)/C=C/CNCCCCN1c2cc(Cl)ccc2CCc2cnn(C)c21.O=C(O)/C=C\C(=O)O the intrinsic clearance was 227 ± 8.4 µL/min/mg protein (mouse liver microsomes; 1 µM).
CCN1/C(=C/C=C2\CCCC(/C=C/C3=[N+](CC)c4ccccc4C3(C)C)=C2NCCCCN2CCC(Nc3nc4ccccc4n3Cc3ccc(F)cc3)CC2)C(C)(C)c2ccccc21 gave an IC50 of 30.4 nM (KCNH2 (Homo sapiens, UniProt Q12809); ligand displacement, radioligand; HEK293; 80 min, cell membranes).
CNCCCN1c2ccccc2CCc2ccc(Cl)cc21 has an inhibition of 0% (E3 ubiquitin-protein ligase NEDD4; enzyme activity, inhibitor, TR-FRET; 33 µM).
CN(C)C(=O)/C=C/CNCCCN1c2ccccc2CCc2ccc(Cl)cc21.Cl gave an inhibition of 23.3% (E3 ubiquitin-protein ligase NEDD4; enzyme activity, inhibitor, TR-FRET; 33 µM).
With N#C/C=C/CNCCCCN1c2ccccc2CCc2ccc(Cl)cc21.O=C(O)/C=C\C(=O)O the intrinsic clearance was 133 ± 10.3 µL/min/mg protein (human liver microsomes; 1 µM).

Some of these lines once more (study 1):
For DCAF1; 27.4 °C: “SYPRO Orange fluorescence” read 8880 a.u.
